Published values pooled from the literature.
Parts stem from different laboratories: compare values within a part only. Positions count from the first letter of the parent shown.
UniProt P31152, sequence (whole entry, looked up): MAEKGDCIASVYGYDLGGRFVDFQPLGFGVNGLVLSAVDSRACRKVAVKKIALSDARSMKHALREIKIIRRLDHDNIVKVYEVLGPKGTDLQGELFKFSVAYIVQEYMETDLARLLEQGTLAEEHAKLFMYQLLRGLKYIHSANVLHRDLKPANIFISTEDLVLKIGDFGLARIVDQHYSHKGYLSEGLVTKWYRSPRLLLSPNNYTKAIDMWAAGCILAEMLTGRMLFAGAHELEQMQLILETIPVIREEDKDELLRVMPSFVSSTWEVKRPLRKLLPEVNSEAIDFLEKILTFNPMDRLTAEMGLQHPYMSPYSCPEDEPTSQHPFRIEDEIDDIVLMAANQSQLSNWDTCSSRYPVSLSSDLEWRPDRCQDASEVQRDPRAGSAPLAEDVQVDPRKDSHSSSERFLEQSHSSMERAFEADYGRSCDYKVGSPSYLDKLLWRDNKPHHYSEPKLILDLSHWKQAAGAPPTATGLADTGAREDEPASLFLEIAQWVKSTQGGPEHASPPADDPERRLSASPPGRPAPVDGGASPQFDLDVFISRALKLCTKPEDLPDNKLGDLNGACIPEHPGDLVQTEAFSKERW
UniProt P21127, sequence (whole entry, looked up): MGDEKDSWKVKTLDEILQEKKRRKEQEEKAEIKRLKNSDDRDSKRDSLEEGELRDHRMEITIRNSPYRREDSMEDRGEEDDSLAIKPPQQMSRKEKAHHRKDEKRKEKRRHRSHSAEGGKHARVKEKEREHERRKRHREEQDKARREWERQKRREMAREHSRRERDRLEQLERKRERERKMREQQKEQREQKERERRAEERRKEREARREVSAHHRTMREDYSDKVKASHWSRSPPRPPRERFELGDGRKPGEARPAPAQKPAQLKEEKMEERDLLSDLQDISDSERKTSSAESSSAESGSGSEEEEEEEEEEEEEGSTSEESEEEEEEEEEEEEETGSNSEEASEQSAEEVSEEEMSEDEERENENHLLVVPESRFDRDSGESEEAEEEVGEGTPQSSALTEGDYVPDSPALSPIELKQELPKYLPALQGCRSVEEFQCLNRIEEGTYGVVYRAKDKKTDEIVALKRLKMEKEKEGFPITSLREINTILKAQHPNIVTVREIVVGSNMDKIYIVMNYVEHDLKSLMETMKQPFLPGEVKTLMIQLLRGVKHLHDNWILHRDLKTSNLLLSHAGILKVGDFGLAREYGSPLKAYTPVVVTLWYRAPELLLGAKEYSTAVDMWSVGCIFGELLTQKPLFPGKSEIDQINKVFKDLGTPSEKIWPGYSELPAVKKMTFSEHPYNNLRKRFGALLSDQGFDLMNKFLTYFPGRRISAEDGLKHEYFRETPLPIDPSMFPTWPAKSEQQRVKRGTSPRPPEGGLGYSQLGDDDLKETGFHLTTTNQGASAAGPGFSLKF
UniProt Q13523, sequence (whole entry, looked up): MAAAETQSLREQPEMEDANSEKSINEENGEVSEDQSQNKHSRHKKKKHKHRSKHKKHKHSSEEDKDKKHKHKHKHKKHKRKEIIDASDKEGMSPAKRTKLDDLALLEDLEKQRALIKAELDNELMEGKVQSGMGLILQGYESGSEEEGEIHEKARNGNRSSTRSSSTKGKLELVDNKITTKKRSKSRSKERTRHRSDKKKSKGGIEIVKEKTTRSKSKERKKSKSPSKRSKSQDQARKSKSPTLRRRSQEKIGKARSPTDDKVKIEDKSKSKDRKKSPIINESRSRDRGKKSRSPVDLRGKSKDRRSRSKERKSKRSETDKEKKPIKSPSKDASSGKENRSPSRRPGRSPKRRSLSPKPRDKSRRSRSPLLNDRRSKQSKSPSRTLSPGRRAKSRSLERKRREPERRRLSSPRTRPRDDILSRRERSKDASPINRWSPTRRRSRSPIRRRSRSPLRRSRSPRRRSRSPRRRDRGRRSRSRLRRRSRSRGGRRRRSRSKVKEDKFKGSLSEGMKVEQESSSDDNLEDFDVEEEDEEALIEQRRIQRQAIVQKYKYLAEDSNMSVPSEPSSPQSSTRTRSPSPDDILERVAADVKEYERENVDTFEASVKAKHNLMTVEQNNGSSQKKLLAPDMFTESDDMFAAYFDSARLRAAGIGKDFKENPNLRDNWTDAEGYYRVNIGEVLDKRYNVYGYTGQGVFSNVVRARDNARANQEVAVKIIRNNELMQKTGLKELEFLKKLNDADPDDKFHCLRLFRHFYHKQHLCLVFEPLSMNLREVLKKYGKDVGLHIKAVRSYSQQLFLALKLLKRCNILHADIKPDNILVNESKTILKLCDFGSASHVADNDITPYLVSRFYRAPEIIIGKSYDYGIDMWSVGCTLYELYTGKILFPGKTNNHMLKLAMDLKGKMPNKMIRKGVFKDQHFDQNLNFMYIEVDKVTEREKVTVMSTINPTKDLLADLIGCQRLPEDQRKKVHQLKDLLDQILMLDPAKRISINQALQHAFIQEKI
UniProt Q9UBF8, sequence (whole entry, looked up): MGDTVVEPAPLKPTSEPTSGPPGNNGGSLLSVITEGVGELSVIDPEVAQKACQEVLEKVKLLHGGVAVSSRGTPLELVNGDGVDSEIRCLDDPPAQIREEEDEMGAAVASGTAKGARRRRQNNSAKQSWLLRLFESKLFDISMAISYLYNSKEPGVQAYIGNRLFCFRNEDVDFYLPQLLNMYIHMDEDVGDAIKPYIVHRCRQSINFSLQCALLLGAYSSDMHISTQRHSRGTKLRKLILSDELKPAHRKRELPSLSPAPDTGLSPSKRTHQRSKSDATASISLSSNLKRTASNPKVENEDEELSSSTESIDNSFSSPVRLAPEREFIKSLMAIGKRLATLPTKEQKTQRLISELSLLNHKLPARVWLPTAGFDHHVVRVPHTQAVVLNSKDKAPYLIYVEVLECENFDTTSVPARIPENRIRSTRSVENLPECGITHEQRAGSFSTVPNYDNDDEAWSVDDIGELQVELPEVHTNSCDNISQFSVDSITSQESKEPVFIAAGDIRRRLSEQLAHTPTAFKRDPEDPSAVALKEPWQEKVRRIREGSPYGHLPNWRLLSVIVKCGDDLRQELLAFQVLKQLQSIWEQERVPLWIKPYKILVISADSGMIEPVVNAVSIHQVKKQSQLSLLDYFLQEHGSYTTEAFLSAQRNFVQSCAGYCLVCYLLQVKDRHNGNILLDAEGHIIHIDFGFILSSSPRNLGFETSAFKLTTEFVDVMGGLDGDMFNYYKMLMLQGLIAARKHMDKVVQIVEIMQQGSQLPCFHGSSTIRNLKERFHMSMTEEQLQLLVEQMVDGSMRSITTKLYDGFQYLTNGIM
UniProt O43353, sequence (whole entry, looked up): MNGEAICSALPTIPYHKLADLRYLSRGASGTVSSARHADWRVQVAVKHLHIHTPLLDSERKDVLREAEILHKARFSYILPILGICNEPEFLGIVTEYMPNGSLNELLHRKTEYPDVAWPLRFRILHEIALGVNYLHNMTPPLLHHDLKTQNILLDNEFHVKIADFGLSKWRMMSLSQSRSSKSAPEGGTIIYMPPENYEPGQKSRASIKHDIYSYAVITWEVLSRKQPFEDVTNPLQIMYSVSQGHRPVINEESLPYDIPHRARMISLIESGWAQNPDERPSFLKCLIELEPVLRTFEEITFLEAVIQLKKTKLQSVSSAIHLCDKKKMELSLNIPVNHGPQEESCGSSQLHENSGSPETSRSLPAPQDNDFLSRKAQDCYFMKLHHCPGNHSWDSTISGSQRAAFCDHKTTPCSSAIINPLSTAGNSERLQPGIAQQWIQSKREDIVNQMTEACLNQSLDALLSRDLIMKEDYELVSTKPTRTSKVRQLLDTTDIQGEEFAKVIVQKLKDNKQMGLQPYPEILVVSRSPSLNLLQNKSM

Series 1 — read-out: cell-free assay; method: competition with immobilised ligand; tested at: 1 µM; endpoint: remaining binding
SMILES: O=C1CCc2cc(Nc3cc(OC4CCOCC4)c([N+](=O)[O-])cc3Cl)ccc2N1
MAPK4 (Homo sapiens, UniProt P31152): 100%
PI4KB (Homo sapiens, UniProt Q9UBF8): 100%
RIPK2 (Homo sapiens, UniProt O43353): 53%
FLT4 (Homo sapiens, UniProt P35916): 97%
CDK11B (Homo sapiens, UniProt P21127): 98%
PRPF4B (Homo sapiens, UniProt Q13523): 100%

Series 2 — read-out: enzyme activity; mode: inhibitor; tested at: 0.5 µM; reference: control; endpoint: remaining activity
Target: G protein-coupled receptor kinase 5 (GRK5, Homo sapiens, UniProt P34947)
UniProt P34947, sequence (whole entry, looked up): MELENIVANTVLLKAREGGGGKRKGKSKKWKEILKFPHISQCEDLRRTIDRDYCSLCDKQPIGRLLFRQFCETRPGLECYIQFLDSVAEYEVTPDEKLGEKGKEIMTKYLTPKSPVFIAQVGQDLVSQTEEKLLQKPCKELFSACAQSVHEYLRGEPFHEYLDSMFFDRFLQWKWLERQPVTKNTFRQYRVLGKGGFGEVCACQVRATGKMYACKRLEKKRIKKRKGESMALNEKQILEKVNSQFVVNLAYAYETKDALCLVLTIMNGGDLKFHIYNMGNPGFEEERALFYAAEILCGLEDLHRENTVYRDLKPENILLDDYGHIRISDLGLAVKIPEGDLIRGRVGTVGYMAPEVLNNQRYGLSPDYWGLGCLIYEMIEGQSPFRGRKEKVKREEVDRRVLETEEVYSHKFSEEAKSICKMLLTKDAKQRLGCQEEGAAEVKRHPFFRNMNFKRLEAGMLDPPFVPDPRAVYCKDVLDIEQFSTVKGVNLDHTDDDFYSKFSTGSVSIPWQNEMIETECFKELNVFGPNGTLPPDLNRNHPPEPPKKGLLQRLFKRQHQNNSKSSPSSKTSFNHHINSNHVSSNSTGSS
Cn1c2ccccc2c2c3c(c4c5ccccc5n(CCC#N)c4c21)CNC3=O: 89.1%
O=C(CCCc1ccc(-c2ccccc2F)cc1)Nc1ccc(O)cc1: 98.4%
CCOC(=O)c1c(C)[nH]c(/C=C2\C(=O)Nc3ccccc32)c1C: 102%
N#CC(C#N)=C(N)/C(C#N)=C/c1ccc(O)cc1: 113%
O=S(=O)(c1cccc2cnccc12)N1CCCNCC1: 109%
COc1cc2ncnc(Nc3ccc(Oc4ccccc4)cc3)c2cc1OC: 97.4%
COc1cc2ncnc(Nc3ccc(F)c(Cl)c3)c2cc1OCCCN1CCOCC1: 94.9%
COc1ccc(CNC(=O)Nc2ncc([N+](=O)[O-])s2)cc1: 104%
C#Cc1cccc(Nc2ncnc3cc(OCCOC)c(OCCOC)cc23)c1: 100%
Cc1ccc(Nc2nccc(N(C)c3ccc4c(C)n(C)nc4c3)n2)cc1S(N)(=O)=O: 99.6%
OCC(O)CCON=C1C(c2c(O)[nH]c3ccccc23)=Nc2ccccc21 (stereo not shown): 84.6%
CNC(=O)c1cc(Oc2ccc(NC(=O)Nc3ccc(Cl)c(C(F)(F)F)c3)cc2)ccn1: 97.8%
Cn1sc(=O)n(Cc2ccccc2)c1=O: 93.6%
O=C(O)c1ccc2c3c1cccc3c(=O)n1c3ccccc3nc21: 97.1%
Nc1ncnc2n[nH]c(Nc3ccc(F)cc3)c12: 97.1%

Series 3 — method: RNA Bind-n-Seq; molecule type: RNA; sample: in vitro; tested at: 200 nM; setting: whole 134-nt RNA, ends assumed; together with: 150 mM LiCl; reference: input library; reading: higher = stronger binding; endpoint: log2 enrichment; each molecule: 7-deaza-guanosine replaces G
Target: Ras GTPase-activating protein-binding protein 1, full length (G3BP1, Homo sapiens, UniProt Q13283)
UniProt Q13283, sequence (whole entry, looked up): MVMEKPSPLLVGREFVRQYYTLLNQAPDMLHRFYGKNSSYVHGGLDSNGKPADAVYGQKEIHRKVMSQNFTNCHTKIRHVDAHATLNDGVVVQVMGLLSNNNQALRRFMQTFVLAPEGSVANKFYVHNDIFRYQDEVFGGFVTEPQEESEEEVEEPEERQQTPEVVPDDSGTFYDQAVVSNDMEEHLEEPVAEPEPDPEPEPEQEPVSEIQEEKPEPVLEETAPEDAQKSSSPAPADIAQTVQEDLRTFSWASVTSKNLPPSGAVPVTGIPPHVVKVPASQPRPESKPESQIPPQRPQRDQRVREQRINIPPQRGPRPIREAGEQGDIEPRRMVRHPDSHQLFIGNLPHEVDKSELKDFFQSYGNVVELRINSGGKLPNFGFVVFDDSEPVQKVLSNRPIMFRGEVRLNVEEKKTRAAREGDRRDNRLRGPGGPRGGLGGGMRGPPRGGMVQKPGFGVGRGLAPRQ
Constant ends, left off below: GGGAGUUCUACAGUCCGACGAUC … UGGAAUUCUCGGGUGUCAAGG
CAAGUCCUGUGCUACACAUCGUAUGUACCGAAUCGGCCCCGGCCCCGGGCCCCGGGAAAGUAUUAUGUUACGCCGUUCGGAUCUGCACUU: -1.02
GUCCUGUGCUACACAUCGUAUGUACCGAAUCGGCCCCCGGGGCCCCCGGCCCCCGGGGAAAGUAUUAUGUUACGCCGUUCGGAUCUGCAC: -1.8
UCUCCCCAGGAGCACAGAAAAUGGUUCUGCCCCCUCCACAGCUCCCACAGACCAGAGCCGGCCACCGUUGGAGGUGAGUCGCCCGCCCCU: 0.866
AAGUCCUGUGCUACACAUCGUAUGUACCGAAUCGGUUUUGGUUUUGGGUUUUGGGGAAAGUAUUAUGUUACGCCGUUCGGAUCUGCACUU: -0.383
CUGUGCUACACAUCGUAUGUACCGAAUCGGGGAAAAAAGGGGAAAAAAGGGGAAAAAAGGGAAAGUAUUAUGUUACGCCGUUCGGAUCUG: 0.387
UCCUCAAGUCCUGUGCUACACAUCGUAUGUACCGAAUCGGUGGUGGGGUGGAAAGUAUUAUGUUACGCCGUUCGGAUCUGCACUUCCAGC: 0.596
CACAGACAACACGCACCCACUCAGACACAGAGGGAAGGGGUUGGGAUGGGGACAGGGUGCACAGCAGGGCGGGGUAGGACCCCAGCCCCU: -0.183
CACAGACAACACGCACCCACACAGACACAGAGGGAAGGGGUUGGGAUGGGGACAGGGUGCACUGCAGGGCGGGGUAGGACCCCAGCCCCU: -0.393

Series 4 — target: CRIPT, C-terminal peptide; method: DHFR complementation, deep sequencing; sample: yeast; reference: wild type; reading: higher = weaker binding; endpoint: binding free energy change
Setting: single substitutions, model-inferred values
Starting sequence: ERBIN, PDZ domain 1 (human); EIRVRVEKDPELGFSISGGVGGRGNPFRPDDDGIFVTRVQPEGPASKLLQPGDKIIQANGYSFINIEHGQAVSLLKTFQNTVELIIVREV; partner TKNYKQTSV
E42W: 0.123 kcal/mol
R5Y: 0.0782 kcal/mol
G33E: 0.797 kcal/mol
G22Y: 0.535 kcal/mol
I34E: 0.675 kcal/mol
I66W: 0.0247 kcal/mol
P29S: 0.161 kcal/mol
G19T: 1.3 kcal/mol

A few entries again (series 2):
CCOC(=O)c1c(C)[nH]c(/C=C2\C(=O)Nc3ccccc32)c1C: 102%
N#CC(C#N)=C(N)/C(C#N)=C/c1ccc(O)cc1: 113%
